Measured values gathered from unrelated publications.
Protocols differ between the studies behind these lines.
Partner: itself
B1: phage phi29 gene 12 product D4 domain 692-854 D701G/S777N/G817S (bacteriophage phi29, UniProt P20345); sequence looked up; chain DFAEYFESLGGQVIETGYLVTLEKGKIRKAEKGEKIIGVISETAGFVLGESSFEWQGAVLKNEFGGIIYEEVTTEDGVKFKRPLPNPDFDPNKNYIPRSQRREWHVVGLLGQIAVRIDETVKQGHSIDAVGGVATDGDNFIVQEITTPYTKEKGYGVAIVLVK
B2: tnsC 1-503 A225V (Escherichia coli, UniProt P05846); sequence looked up; chain MSATRIQAVYRDTGVEAYRDNPFIEALPPLQESVNSAASLKSSLQLTSSDLQKSRVIRAHTICRIPDDYFQPLGTHLLLSERISVMIRGGYVGRNPKTGDLQKHLQNGYERVQTGELETFRFEEARSTAQSLLLIGCSGSGKTTSLHRILATYPQVIYHRELNVEQVVYLKIDCSHNGSLKEICLNFFRALDRALGSNYERRYGLKRHGIETMLALMSQIANAHVLGLLVIDEIQHLSRSRSGGSQEMLNFFVTMVNIIGVPVMLIGTPKAREIFEADLRSARRGAGFGAIFWDPIQQTQRGKPNQEWIAFTDNLWQLQLLQRKDALLSDEVRDVWYELSQGVMDIVVKLFVLAQLRALALGNERITAGLLRQVYQDELKPVHPMLEALRSGIPERIARYSDLVVPEIDKRLIQLQLDIAAIQEQTPEEKALQELDTEDQRHLYLMLKEDYDSSLLIPTIKKAFSQNPTMTRQKLLPLVLQWLMEGETVVSELEKPSKSKKVS
B3: bcsZ 22-368 (Escherichia coli, UniProt P37651); chain ACTWPAWEQFKKDYISQEGRVIDPSDARKITTSEGQSYGMFSALAANDRAAFDNILDWTQNNLAQGSLKERLPAWLWGKKENSKWEVLDSNSASDGDVWMAWSLLEAGRLWKEQRYTDIGSALLKRIAREEVVTVPGLGSMLLPGKVGFAEDNSWRFNPSYLPPTLAQYFTRFGAPWTTLRETNQRLLLETAPKGFSPDWVRYEKDKGWQLKAEKTLISSYDAIRVYMWVGMMPDSDPQKARMLNRFKPMATFTEKNGYPPEKVDVATGKAQGKGPVGFSAAMLPFLQNRDAQAVQRQRVADNFPGSDAYYNYVLTLFGQGWDQHRFRFSTKGELLPDWGQECANSH
B4: SLFN11 1-901 E209A/E214A (Homo sapiens, UniProt Q7Z7L1); chain MEANQCPLVVEPSYPDLVINVGEVTLGEENRKKLQKIQRDQEKERVMRAACALLNSGGGVIRMAKKVEHPVEMGLDLEQSLRELIQSSDLQAFFETKQQGRCFYIFVKSWSSGPFPEDRSVKPRLCSLSSSLYRRSETSVRSMDSREAFCFLKTKRKPKILEEGPFHKIHKGVYQELPNSDPADPNSDPADLIFQKDYLEYGEILPFPASQLVAFKQFSTKHFQEYVKRTIPEYVPAFANTGGGYLFIGVDDKSREVLGCAKENVDPDSLRRKIEQAIYKLPCVHFCQPQRPITFTLKIVNVLKRGELYGYACMIRVNPFCCAVFSEAPNSWIVEDKYVCSLTTEKWVGMMTDTDPDLLQLSEDFECQLSLSSGPPLSRPVYSKKGLEHKKELQQLLFSVPPGYLRYTPESLWRDLISEHRGLEELINKQMQPFFRGILIFSRSWAVDLNLQEKPGVICDALLIAQNSTPILYTILREQDAEGQDYCTRTAFTLKQKLVNMGGYTGKVCVRAKVLCLSPESSAEALEAAVSPMDYPASYSLAGTQHMEALLQSLVIVLLGFRSLLSDQLGCEVLNLLTAQQYEIFSRSLRKNRELFVHGLPGSGKTIMAMKIMEKIRNVFHCEAHRILYVCENQPLRNFISDRNICRAETRKTFLRENFEHIQHIVIDEAQNFRTEDGDWYGKAKSITRRAKGGPGILWIFLDYFQTSHLDCSGLPPLSDQYPREELTRIVRNADPIAKYLQKEMQVIRSNPSFNIPTGCLEVFPEAEWSQGVQGTLRIKKYLTVEQIMTCVADTCRRFFDRGYSPKDVAVLVSTAKEVEHYKYELLKAMRKKRVVQLSDACDMLGDHIVLDSVRRFSGLERSIVFGIHPRTADPAILPNVLICLASRAKQHLYIFPWGGH
B5: Pgi1 (Azotobacter vinelandii, UniProt C1DDK7); sequence looked up; chain MSYYQQAFDVTSLPSWRALQEHRLAMQNFHMREAFLSDPGRFDEFSTSSCGLFLDYSKNLITPETRDLLVNLAREAGVEQAARAMFDGEPVNASERRPALHTALRRPVGDSLLIDGHNIMRDVHAALAQMTDIVGRIHNKLWRGYSDRAITDVVNIGIGGSYLGPELVSEALLPYTQHGVRCHYLANIDGSEFHELTARLNAETTLFIISSKTFGTLETLKNAQAARTWYLASGGSEERLYRHFIAVTSNIPAAIEFGIREKNIFPMWDWVGGRYSLWSAIGLPTALAIGMANFKDLLSGAYAMDCHFRREPFENNMPVLLAMLGVWYGNFWGAQSHAILPYDHYLRNFVKHLQQMDMESNGKSVRQDGSPVSCETGPVIWGGVGCNGQHAYHQLLHQGTLLIPADFIVPVVSHNPVADHHQWLYANCLSQSQALMLGKSREEAEAELRAKGLPEAEVKRLAPHKVIPGNRPSNTLVMETLNPSRLGALIALYEHKVFVQGVIWGINSFDQWGVELGKELGKNVYGRLTSYEAPPAEDSSTQGLIDYFRGRHRG
B6: Saci_2020 (Sulfolobus acidocaldarius, UniProt Q4J7B5); chain MEKGRIIAIEGIMSSGKTTHVQSLRDYLEDRGYVVTTIGIQSSKLMADAIASVKRDIVFQRRTLFLAYVTDLADQTENLVKPSLDSGFIVIADGYVLTLEAWALTRRLEREWVEGVLSMLPKASLSISLISPPTEIMRRIIKRKGFLDPLSESVDLNVKEDTFLAYKKYVKEFQSHLKSISPNVLVTKNNVNEVNREIERLVREELKIDA
B7: sso0001 1-202 C197A (Sulfolobus solfataricus, UniProt Q97TX9); chain MITEFLLKKKLEEHLSHVKEENTIYVTDLVRCPRRVRYESEYKELAISQVYAPSAILGDILHLGLESVLKGNFNAETEVETLREINVGGKVYKIKGRADAIIRNDNGKSIVIEIKTSRSDKGLPLIHHKMQLQIYLWLFSAEKGILVYITPDRIAEYEINEPLDEATIVRLAEDTIMLQNSPRFNWECKYCIFSVIAPAKLT
B8: RECQL 49-616 (Homo sapiens, UniProt P46063); sequence looked up; chain CLEDSDAGASNEYDSSPAAWNKEDFPWSGKVKDILQNVFKLEKFRPLQLETINVTMAGKEVFLVMPTGGGKSLCYQLPALCSDGFTLVICPLISLMEDQLMVLKQLGISATMLNASSSKEHVKWVHAEMVNKNSELKLIYVTPEKIAKSKMFMSRLEKAYEARRFTRIAVDEVHCCSQWGHDFRPDYKALGILKRQFPNASLIGLTATATNHVLTDAQKILCIEKCFTFTASFNRPNLYYEVRQKPSNTEDFIEDIVKLINGRYKGQSGIIYCFSQKDSEQVTVSLQNLGIHAGAYHANLEPEDKTTVHRKWSANEIQVVVATVAFGMGIDKPDVRFVIHHSMSKSMENYYQESGRAGRDDMKADCILYYGFGDIFRISSMVVMENVGQQKLYEMVSYCQNISKCRRVLMAQHFDEVWNSEACNKMCDNCCKDSAFERKNITEYCRDLIKILKQAEELNEKLTPLKLIDSWMGKGAAKLRVAGVVAPTLPREDLEKIIAHFLIQQYLKEDYSFTAYATISYLKIGPKANLLNNEAHAITMQVTKSTQNSFRAESSQTCHSEQGDKKME
B9: CRYBB1 (Homo sapiens, UniProt P53674); sequence looked up; chain MSQAAKASASATVAVNPGPDTKGKGAPPAGTSPSPGTTLAPTTVPITSAKAAELPPGNYRLVVFELENFQGRRAEFSGECSNLADRGFDRVRSIIVSAGPWVAFEQSNFRGEMFILEKGEYPRWNTWSSSYRSDRLMSFRPIKMDAQEHKISLFEGANFKGNTIEIQGDDAPSLWVYGFSDRVGSVKVSSGTWVGYQYPGYRGYQYLLEPGDFRHWNEWGAFQPQMQSLRRLRDKQWHLEGSFPVLATEPPK
B10: ADAR1 127-end 127-1226 D1113H (human, UniProt P55265); sequence looked up; chain SSHFQELSIYQDQEQRILKFLEELGEGKATTAHDLSGKLGTPKKEINRVLYSLAKKGKLQKEAGTPPLWKIAVSTQAWNQHSGVVRPDGHSQGAPNSDPSLEPEDRNSTSVSEDLLEPFIAVSAQAWNQHSGVVRPDSHSQGSPNSDPGLEPEDSNSTSALEDPLEFLDMAEIKEKICDYLFNVSDSSALNLAKNIGLTKARDINAVLIDMERQGDVYRQGTTPPIWHLTDKKRERMQIKRNTNSVPETAPAAIPETKRNAEFLTCNIPTSNASNNMVTTEKVENGQEPVIKLENRQEARPEPARLKPPVHYNGPSKAGYVDFENGQWATDDIPDDLNSIRAAPGEFRAIMEMPSFYSHGLPRCSPYKKLTECQLKNPISGLLEYAQFASQTCEFNMIEQSGPPHEPRFKFQVVINGREFPPAEAGSKKVAKQDAAMKAMTILLEEAKAKDSGKSEESSHYSTEKESEKTAESQTPTPSATSFFSGKSPVTTLLECMHKLGNSCEFRLLSKEGPAHEPKFQYCVAVGAQTFPSVSAPSKKVAKQMAAEEAMKALHGEATNSMASDNQPEGMISESLDNLESMMPNKVRKIGELVRYLNTNPVGGLLEYARSHGFAAEFKLVDQSGPPHEPKFVYQAKVGGRWFPAVCAHSKKQGKQEAADAALRVLIGENEKAERMGFTEVTPVTGASLRRTMLLLSRSPEAQPKTLPLTGSTFHDQIAMLSHRCFNTLTNSFQPSLLGRKILAAIIMKKDSEDMGVVVSLGTGNRCVKGDSLSLKGETVNDCHAEIISRRGFIRFLYSELMKYNSQTAKDSIFEPAKGGEKLQIKKTVSFHLYISTAPCGDGALFDKSCSDRAMESTESRHYPVFENPKQGKLRTKVENGEGTIPVESSDIVPTWDGIRLGERLRTMSCSDKILRWNVLGLQGALLTHFLQPIYLKSVTLGYLFSQGHLTRAICCRVTRDGSAFEDGLRHPFIVNHPKVGRVSIYHSKRQSGKTKETSVNWCLADGYDLEILDGTRGTVDGPRNELSRVSKKNIFLLFKKLCSFRYRRDLLRLSYGEAKKAARDYETAKNYFKKGLKDMGYGNWISKPQEEKNFYLCPV
B11: lacI 1-360 N125A (Escherichia coli, UniProt P03023); chain MKPVTLYDVAEYAGVSYQTVSRVVNQASHVSAKTREKVEAAMAELNYIPNRVAQQLAGKQSLLIGVATSSLALHAPSQIVAAIKSRADQLGASVVVSMVERSGVEACKAAVHNLLAQRVSGLIIAYPLDDQDAIAVEAACTNVPALFLDVSDQTPINSIIFSHEDGTRLGVEHLVALGHQQIALLAGPLSSVSARLRLAGWHKYLTRNQIQPIAEREGDWSAMSGFQQTMQMLNEGIVPTAMLVANDQMALGAMRAITESGLRVGADISVVGYDDTEDSSCYIPPLTTIKQDFRLLGQTSVDRLLQLSQGQAVKGNQLLPVSLVKRKTTLAPNTQTASPRALADSLMQLARQVSRLESGQ
B12: SPA2 389-535 (Saccharomyces cerevisiae, UniProt P23201); Alexa 488 label; sequence looked up; chain LKITDGFISKYSSADGLIPAQYILNANNLIIQFTTRLSAVPIGDSTAISHQIGEELFQILSQLSNLISQLLLSADLLQYKDQVILLKASLSHAITSIRYFSVYGPVLIPKITVQAAVSEVCFAMCNLIDSAKIKSDSNGESTTSNEG
B13: KtrC (Bacillus subtilis, UniProt P39760); sequence looked up; chain MKKEFAVIGLGRFGGSICKALSEEGVEVMAMDIDEDKVNEYAKIASHAVIGDSTDESVLKNLGLRNFDHVIVAIGENIQASILTTLILKELGVHTITVKAQNDYHEKVLSKIGADHIVHPERDMAKRIAHNIVSNNVLDYLELSEEHSLVEIVANSRLAGNTLLDLDIRAKYGINIVAIKRGKEVIVSPLATEVIHQEDILIVIGSVTDISRFEKRVLHTK
B14: yjoB 159-423 (Bacillus subtilis, UniProt O34703); sequence looked up; chain RKVTVFTDGDGGTSREQEAIVREVQRSQVIMNPLLKKEIYRSIDQFFHSDKSFYQTYDIPYKRGILLYGPPGNGKTTLVKSIAGSIDAPVAYWQITEFTSSETIEEVFQAARRLAPAVLVIEDIDSMPEDVRSFFLNTLDGATSKEGLFLIGTTNYPEEIDPGLMNRAGRFDRAYEIGLPDEELRLEYMKMRGFGIFLSEGEIKNAAKLTEGFSFAQLGELYVSSALQWHQEGNHHIETMVKDMTGEQRKSQRGSWMERNKVGFH
UniProt Q99571, sequence (whole entry, looked up): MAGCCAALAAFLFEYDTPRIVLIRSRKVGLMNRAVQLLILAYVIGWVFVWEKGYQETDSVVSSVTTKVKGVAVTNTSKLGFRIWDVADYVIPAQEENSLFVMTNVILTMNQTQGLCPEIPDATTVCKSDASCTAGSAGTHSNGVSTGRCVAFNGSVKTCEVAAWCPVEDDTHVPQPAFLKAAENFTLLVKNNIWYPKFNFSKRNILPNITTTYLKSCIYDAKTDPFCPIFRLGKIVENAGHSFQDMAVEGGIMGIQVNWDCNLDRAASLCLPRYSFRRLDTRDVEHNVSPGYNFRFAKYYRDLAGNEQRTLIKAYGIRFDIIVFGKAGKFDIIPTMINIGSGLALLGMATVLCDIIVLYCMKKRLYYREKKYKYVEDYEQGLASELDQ

Substance	method	notes	with	subunits per oligomer
B1	crystal structure			3
B2 (tnsC 1-503 A225V)	cryo-EM		AMPPnP	7
B3 (bcsZ 22-368)	cryo-EM			4
B4 (SLFN11 1-901 E209A/E214A)	SEC			2
B5 (Pgi1)	cryo-EM			10
B6 (Saci_2020)	SEC			4
MKGMSKMAQFNLRWAREVLDLVRKVAEENGRSVNSEIYQRVMESFKKEGRIGA (Arc repressor 1-53 P8A/P15A (P22 phage, UniProt P03050))	SEC			2
B7 (sso0001 1-202 C197A)	SEC			5 protomers
B8 (RECQL 49-616)	SEC			2
B9 (CRYBB1)	native MS	abundances relative to monomer		2
B10 (ADAR1 127-end 127-1226 D1113H)	SEC			2
B11 (lacI 1-360 N125A)	SEC			4
P2RX4 (Homo sapiens, UniProt Q99571)	cryo-EM			3
B12 (SPA2 389-535)	mass photometry			3
B13 (KtrC)	crystal structure			8
B14 (yjoB 159-423)	SEC			6
